Assay results collected from several papers.
Numbered parts are unrelated; each lists some results of a single study. Substitutions count along the parent as printed.

Block 1 — method: RNA Bind-n-Seq; molecule type: RNA; sample: in vitro; tested at: 200 nM; notes: whole 134-nt RNA, ends assumed; together with: 150 mM KCl; baseline: input library; reading: higher = stronger binding
Target: Fragile X messenger ribonucleoprotein 1, C-terminal low-complexity region (Fmr1, Mus musculus, UniProt P35922)
`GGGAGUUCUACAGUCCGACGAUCUAACUUAAGAGGAGGAUCUGAUGGAUAUGGCAGUGGACGUGGAUUUGGGGAUGGCUAUAAUGGGUAUGGAGGAGGACCUGGAGGUGGCAAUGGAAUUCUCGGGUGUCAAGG` gave a log2 enrichment of 0.329.
The log2 enrichment of `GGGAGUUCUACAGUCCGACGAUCUUCAGGAUUGUGAGGGUGAAACUCCCAUUCACAAGGCAGCUCGCUCUGGGAGCCUAGAAUGCAUCAGUGCCCUUGUGGCGAAUGGGGCUCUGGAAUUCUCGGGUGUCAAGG` is reported as -1.51.
For `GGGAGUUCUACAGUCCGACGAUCUAACUUUAGAGGAGGAUCUGAUGGAUAUGGCACUGGACGUGGAUUUGGGGAUGGCUAUAAUGGGUAUGGAGGAGGACCUGGAGGUGGCAAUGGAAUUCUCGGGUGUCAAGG`, the log2 enrichment was 0.457.
The log2 enrichment of `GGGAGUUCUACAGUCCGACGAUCACCAUGCAGGUGGGCAUCUUUGGGAAGUGGGGCAAGGGGGGGAUAGGGAGGGGGGUAACACUUUGGGAACAGGAAAUCCCAGGUCGUUUCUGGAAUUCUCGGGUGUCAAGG` is reported as 0.416.
With `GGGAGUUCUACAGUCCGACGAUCGUCCUGUGCUACACAUCGUAUGUACCGAAUCGGGGAAAAGGGGAAAAGGGAAAAGGGGAAAGUAUUAUGUUACGCCGUUCGGAUCUGCACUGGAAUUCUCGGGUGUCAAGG` the log2 enrichment was 0.293.
For `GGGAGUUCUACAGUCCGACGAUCCACAGACAACACGCACCCACCCAGACACAGAGGGAAGGGGUUGGGAUGGGGACAGGGUGCACAGCAGGGCGGGGUAGGACCCCAGCCCCUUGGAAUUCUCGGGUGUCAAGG`, the log2 enrichment was 1.32.
The log2 enrichment of `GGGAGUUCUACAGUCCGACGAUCUAACUUUAGAGGAGGAUCUGAUGGAUACGGCAGUGGACGUGGAUUUGGGGAUGGCUAUAAUGGGUAUGGAGGAGGACCUGGAGGUGGCAAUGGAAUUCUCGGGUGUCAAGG` is reported as 0.286.
`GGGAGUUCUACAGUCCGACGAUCCCUGUGCUACACAUCGUAUGUACCGAAUCGGGGAAAGGGGUUUUUUUGGGGUUUUUGGGGAAAGUAUUAUGUUACGCCGUUCGGAUCUGCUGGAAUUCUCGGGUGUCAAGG` has a log2 enrichment of 0.471.
For `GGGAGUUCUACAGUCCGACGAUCCAAGUCCUGUGCUACACAUCGUAUGUACCGAAUCGGGGAAAGGGGAGGGGUGGGGAAAGUAUUAUGUUACGCCGUUCGGAUCUGCACUUCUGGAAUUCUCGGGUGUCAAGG`, the log2 enrichment was 1.06.

Block 2 — target: CCNB2, cyclin fold, Cln2 fusion (human); method: yeast growth competition, sequencing; sample: yeast; notes: strong parent motif; baseline: not given; reading: higher = stronger binding
Starting sequence: E2F1 docking peptide (human); PPVKRRLDFETDH
Under “normalised enrichment score”, `PPVKRRLDFITDH [E10I]` is recorded as 1.98.
`PRVKRRLDFETDH [P2R]` — result for “normalised enrichment score”: 3.15.
Under “normalised enrichment score”, `PPVYRRLDFETDH [K4Y]` is recorded as 0.469.
For `PFVKRRLDFETDH [P2F]`, “normalised enrichment score” read 1.63.
`PPVKRRWDFETDH [L7W]`: “normalised enrichment score” 0.542.
Under “normalised enrichment score”, `PPVKRRLDFLTDH [E10L]` is recorded as 2.29.
Under “normalised enrichment score”, `PPVKRLLDFETDH [R6L]` is recorded as 1.43.
For `PPVKRRLDFETCH [D12C]`, “normalised enrichment score” read 3.54.
Under “normalised enrichment score”, `PPVKARLDFETDH [R5A]` is recorded as 1.39.
`PPVKRRLKFETDH [D8K]` — result for “normalised enrichment score”: 1.92.
For `PPDKRRLDFETDH [V3D]`, “normalised enrichment score” read -0.139.
For `PPVKRRLNFETDH [D8N]`, “normalised enrichment score” read 3.54.
`PPVKRRLDFEFDH [T11F]` — result for “normalised enrichment score”: 4.46.
`PPVKRRLDMETDH [F9M]`: “normalised enrichment score” 1.01.
For `PPYKRRLDFETDH [V3Y]`, “normalised enrichment score” read 0.773.
For `PPVKRRLYFETDH [D8Y]`, “normalised enrichment score” read 2.97.
For `PPVKRRLDFSTDH [E10S]`, “normalised enrichment score” read 3.09.

Block 3 — target: UBE2L6 UBC core domain (UniProt O14933); method: yeast two-hybrid; sample: yeast; notes: mostly zero background; baseline: not given; reading: higher = stronger interaction
UniProt O14933, sequence (whole entry, looked up): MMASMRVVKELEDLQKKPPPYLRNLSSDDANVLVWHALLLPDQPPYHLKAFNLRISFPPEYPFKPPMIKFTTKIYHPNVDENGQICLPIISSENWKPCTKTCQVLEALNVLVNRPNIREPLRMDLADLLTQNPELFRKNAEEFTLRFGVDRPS
B1: RMND5B RING domain (UniProt Q96G75); chain MKCWYHSVFACPILRQQTSDSNPPIKLICGHVISRDALNKLINGGKLKCPYCPMEQNPADGK
B2: TRIM47 RING domain (UniProt Q96LD4); chain MDGSGPFSCPICLEPLREPVTLPCGHNFCLACLGALWPHRGASGAGGPGGAARCPLCQEPFPDGLQLR
B3: RNF7 RING domain (UniProt Q9UBF6); chain AICRVQVMDACLRCQAENKQEDCVVVWGECNHSFHNCCMSLWVKQNNRCPLCQQDWVVQRIGK
B4: RFPL3 RING domain (UniProt O75679); chain MAALFQEASSCPVCSDYLEKPMSLECGCTVCLKCINSLQKEPHGEDLLCCCCSMVSQRNKIRP
B5: NHLRC1 RING domain (UniProt Q6VVB1); chain MREAEISLLECKVCFEKFGHRQQRRPRNLSCGHVVCLACVAALAHPRTLALECPFCRRACRGCDTSD
B6: TRIM28 RING domain (UniProt Q13263); chain GAEALELLEHCGVCRERLRPEREPRLLPCLHSACSACLGPAAPAAANSSGDGGAAGDGTVVDCPVCKQQCFSKDIVE
B7: UBE4B RING domain (UniProt O95155); chain KNARAEIDYSDAPDEFRDPLMDTLMTDPVRLPSGTIMDRSIILRHLLNSPTDPFNRQTLTESMLEPVPELKEQIQAWMREKQNSDH
B8: TRIM32 RING domain (UniProt Q13049); chain NLDALREVLECPICMESFTEEQLRPKLLHCGHTICRQCLEKLLASSINGVRCPFCSKITRITSLTQ
Under “lacZ reporter activity”, `B1 (RMND5B RING domain)` is recorded as 0.
For `B2 (TRIM47 RING domain)`, “lacZ reporter activity” read 0.
`B3 (RNF7 RING domain)` — result for “lacZ reporter activity”: 0.
Under “lacZ reporter activity”, `B4 (RFPL3 RING domain)` is recorded as 0.
Under “lacZ reporter activity”, `GSEEEEIPFRCFICRQAFQNPVVTKCRHYFCESCALEHFRATPRCYICDQPTGGIFNPA (RNF113B RING domain (UniProt Q8IZP6))` is recorded as 0.
`AAQLLEEKLTCAICLGLYQDPVTLPCGHNFCGACIRDWWDRCGKACPECREPFPDGAELR (TRIM65 RING domain (UniProt Q6PJ69))`: “lacZ reporter activity” 0.
Under “lacZ reporter activity”, `EDVLSKDAGECAICLEELQQGDTIARLPCLCIYHKGCIDEWFEVNRSCPEHPSD (ZNRF2 RING domain (UniProt Q8NHG8))` is recorded as 0.
For `B5 (NHLRC1 RING domain)`, “lacZ reporter activity” read 0.
`B6 (TRIM28 RING domain)` — result for “lacZ reporter activity”: 0.
For `B7 (UBE4B RING domain)`, “lacZ reporter activity” read 0.
`B8 (TRIM32 RING domain)` — result for “lacZ reporter activity”: 0.
For `PLRRLQEEKLCKICMDRHIAVVFIPCGHLVTCKQCAEAVDRCPMCSAVIDFKQRVF (BIRC8 RING domain (UniProt Q96P09))`, “lacZ reporter activity” read 0.

Block 4 — method: RNA Bind-n-Seq; molecule type: RNA; sample: in vitro; tested at: 365 nM; baseline: no-protein control; reading: higher = stronger binding
Target: RNA binding protein fox-1 homolog 2, RRM domain, GST-SBP tag (RBFOX2, Homo sapiens, UniProt O43251-10, residues 100-194)
Notes: natural RNA segment, single round, ends assumed
Construct (chain): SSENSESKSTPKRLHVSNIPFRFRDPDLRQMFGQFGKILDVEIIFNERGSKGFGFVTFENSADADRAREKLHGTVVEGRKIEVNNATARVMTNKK
Under “RBNS enrichment (R)”, `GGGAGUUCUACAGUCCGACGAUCCCUGUACAGGUAGAUGAACCAGGCGAGAGUUUUAAUCAGCCUUUUCUUGUCCCCUUUGUAAGAAAGAGAUGCUUGCCAUAGAGAAGGACAUGAGUACAUUAAAAAUAAUUUGGAAUUCUCGGGUGCCAA` is recorded as 1.87.
For `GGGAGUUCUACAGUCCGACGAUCAUUUUGUAUGUAAAUGUGUUAGCACUGAUAGUCCUUUUCCAGUGUUUUAUUGGGAAAUUAAAUAGUGUGAUAUUUGGGUUGAUAUAAUGAAAUCCUCAGCCUGGAAACUGUGGAAUUCUCGGGUGCCAA`, “RBNS enrichment (R)” read 0.935.
Under “RBNS enrichment (R)”, `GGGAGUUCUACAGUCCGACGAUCAGCGCCUCCUUCAGGGUUGGCUGGGAGCUCGGCCCAUCCACCUCUUGGGGUACCUGCCUCUCUCUCUCCUGUGGUGUCCCUUCCCUCUCCCAUGUGCUCGGUGUUCAGUGUGGAAUUCUCGGGUGCCAA` is recorded as 0.543.
Under “RBNS enrichment (R)”, `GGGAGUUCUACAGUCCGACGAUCGGAAUCCUACAUGCCAUCUUCAGCCUGGACUCAAUUACUAAACUCGGAUUUGUCUGCAAGACUUUCUCCACGUGCCCUUGACAUUGGAAUCACUUGUGGGGCCUCCUAGGUGGAAUUCUCGGGUGCCAA` is recorded as 0.339.
For `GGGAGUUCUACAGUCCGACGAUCUGUAUUAUUUAUUCAUUCACUGUUUUCUAGUGUUUCUGUGUUUAUUACUGUUCAGCAUCAUCUUGGUUAUAUACUGAAAAUCAAACACUUUACUACAGUUGUGAAUUAGUUGGAAUUCUCGGGUGCCAA`, “RBNS enrichment (R)” read 0.381.
`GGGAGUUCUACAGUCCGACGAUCUCUAGUGGGAGUUCUAUAUAAAUGUUUCUUUGGUAUUCUUCAGCCUGUGAUUUAAAGUUUUACAAAAAGCAGAGCUUUUUCCUAAGUUACUUUUCAGUUAGGUAACUGUGUGGAAUUCUCGGGUGCCAA`: “RBNS enrichment (R)” 0.562.
For `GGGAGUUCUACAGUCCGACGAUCAGUAGGAUAUUUCUUUAGAUUGCCACUUUUUUUAUUCCAGUUGUUUUAGGAAUAAAUGUCAGAUUUUAAAAGUCUUCUAUUUCCCAAUGAUCUCUGAAGUUUAGUAUUUUUGGAAUUCUCGGGUGCCAA`, “RBNS enrichment (R)” read 0.784.
`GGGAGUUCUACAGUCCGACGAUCGCCACUUCUAUCAUUUUUGAGCAACUCCCUCUCAGCUAAAAGGCCACCCCUUUAUCGCAUUGCUGUCCUUGGGUAGAAUAUAAAAUAAAGGGACUUUUAUUUCUUAUUGGUGGAAUUCUCGGGUGCCAA` — result for “RBNS enrichment (R)”: 0.62.

For quick reference, copied from above (block 1):
The log2 enrichment of `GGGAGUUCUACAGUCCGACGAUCACCAUGCAGGUGGGCAUCUUUGGGAAGUGGGGCAAGGGGGGGAUAGGGAGGGGGGUAACACUUUGGGAACAGGAAAUCCCAGGUCGUUUCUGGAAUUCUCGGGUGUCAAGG` is reported as 0.416.
With `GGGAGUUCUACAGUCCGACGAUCGUCCUGUGCUACACAUCGUAUGUACCGAAUCGGGGAAAAGGGGAAAAGGGAAAAGGGGAAAGUAUUAUGUUACGCCGUUCGGAUCUGCACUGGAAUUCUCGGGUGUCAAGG` the log2 enrichment was 0.293.
For `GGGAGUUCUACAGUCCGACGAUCCACAGACAACACGCACCCACCCAGACACAGAGGGAAGGGGUUGGGAUGGGGACAGGGUGCACAGCAGGGCGGGGUAGGACCCCAGCCCCUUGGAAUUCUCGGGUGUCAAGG`, the log2 enrichment was 1.32.
The log2 enrichment of `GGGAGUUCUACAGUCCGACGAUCUAACUUUAGAGGAGGAUCUGAUGGAUACGGCAGUGGACGUGGAUUUGGGGAUGGCUAUAAUGGGUAUGGAGGAGGACCUGGAGGUGGCAAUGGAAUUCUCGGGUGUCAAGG` is reported as 0.286.
`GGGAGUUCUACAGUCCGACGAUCCCUGUGCUACACAUCGUAUGUACCGAAUCGGGGAAAGGGGUUUUUUUGGGGUUUUUGGGGAAAGUAUUAUGUUACGCCGUUCGGAUCUGCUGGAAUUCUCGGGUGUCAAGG` has a log2 enrichment of 0.471.
For `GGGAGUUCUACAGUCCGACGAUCCAAGUCCUGUGCUACACAUCGUAUGUACCGAAUCGGGGAAAGGGGAGGGGUGGGGAAAGUAUUAUGUUACGCCGUUCGGAUCUGCACUUCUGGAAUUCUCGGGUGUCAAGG`, the log2 enrichment was 1.06.
